Measured values of several laboratories.
Parts stem from different laboratories: compare values within a part only. “And” joins repeats or separate records; there may be more than shown.
Chain of UniProt P00519 (whole entry, unmodified, looked up): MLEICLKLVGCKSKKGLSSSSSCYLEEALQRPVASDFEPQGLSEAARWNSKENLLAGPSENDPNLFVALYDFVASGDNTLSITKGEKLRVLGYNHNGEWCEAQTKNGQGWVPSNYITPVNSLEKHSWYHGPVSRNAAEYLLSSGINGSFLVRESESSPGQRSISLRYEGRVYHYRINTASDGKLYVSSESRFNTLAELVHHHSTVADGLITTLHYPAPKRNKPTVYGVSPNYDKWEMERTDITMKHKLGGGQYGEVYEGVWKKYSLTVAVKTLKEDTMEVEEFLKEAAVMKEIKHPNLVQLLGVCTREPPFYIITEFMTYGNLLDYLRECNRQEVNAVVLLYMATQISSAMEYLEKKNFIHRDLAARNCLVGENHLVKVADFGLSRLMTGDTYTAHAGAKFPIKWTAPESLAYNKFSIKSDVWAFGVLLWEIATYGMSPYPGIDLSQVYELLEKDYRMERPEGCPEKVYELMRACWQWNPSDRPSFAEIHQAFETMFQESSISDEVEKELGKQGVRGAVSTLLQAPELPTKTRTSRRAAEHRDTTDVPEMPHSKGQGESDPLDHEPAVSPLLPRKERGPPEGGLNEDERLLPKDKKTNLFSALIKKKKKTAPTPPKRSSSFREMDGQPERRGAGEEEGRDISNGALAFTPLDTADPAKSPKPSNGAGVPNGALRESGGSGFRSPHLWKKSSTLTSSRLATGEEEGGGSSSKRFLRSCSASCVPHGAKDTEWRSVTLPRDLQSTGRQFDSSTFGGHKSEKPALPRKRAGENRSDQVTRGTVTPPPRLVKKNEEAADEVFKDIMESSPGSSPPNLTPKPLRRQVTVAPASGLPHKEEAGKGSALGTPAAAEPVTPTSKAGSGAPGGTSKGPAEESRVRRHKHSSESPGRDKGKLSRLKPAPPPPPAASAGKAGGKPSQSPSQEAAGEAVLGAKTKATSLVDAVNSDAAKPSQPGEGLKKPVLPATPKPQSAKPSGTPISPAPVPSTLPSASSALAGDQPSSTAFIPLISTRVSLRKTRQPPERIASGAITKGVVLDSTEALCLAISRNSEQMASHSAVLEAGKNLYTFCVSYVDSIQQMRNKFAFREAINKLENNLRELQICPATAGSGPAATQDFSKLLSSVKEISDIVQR
Chain of UniProt P14416 (whole entry, looked up): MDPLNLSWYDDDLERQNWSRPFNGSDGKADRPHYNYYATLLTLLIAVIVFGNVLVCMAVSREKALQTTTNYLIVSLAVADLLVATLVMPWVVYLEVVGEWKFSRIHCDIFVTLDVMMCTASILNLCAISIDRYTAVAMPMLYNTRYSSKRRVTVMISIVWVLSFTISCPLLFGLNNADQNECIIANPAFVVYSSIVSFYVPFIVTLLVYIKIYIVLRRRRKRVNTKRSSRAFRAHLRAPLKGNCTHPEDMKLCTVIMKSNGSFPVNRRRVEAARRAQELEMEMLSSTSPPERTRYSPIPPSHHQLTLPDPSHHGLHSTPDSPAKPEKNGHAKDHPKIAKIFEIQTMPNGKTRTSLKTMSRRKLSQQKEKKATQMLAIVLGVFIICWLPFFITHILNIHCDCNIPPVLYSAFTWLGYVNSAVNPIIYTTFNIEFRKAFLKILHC

Study 1
Cell line: mouse MPNST tumor cells
Technique: high-content immunofluorescence imaging
Item: nuclear SOX9
Concentration: 10 µM
Time: 12 h
Notes: mean of 2 replicates
Relative to: DMSO control
Direction: higher = more nuclear SOX9
`CN1CC2c3ccccc3Oc3ccc(Cl)cc3C2C1` (stereo not drawn): “nuclear SOX9 intensity” 126 % of DMSO and 184 % of DMSO and 144 % of DMSO.
For `CN(C)c1ccc(O)c2c1C[C@H]1C[C@H]3[C@H](N(C)C)C(=O)C(C(N)=O)=C(O)[C@@]3(O)C(=O)C1=C2O`, “nuclear SOX9 intensity” read 90.3 % of DMSO.
`COc1ccc(-c2ccc3cc(C(=O)O)ccc3c2)cc1C12CC3CC(CC(C3)C1)C2` — result for “nuclear SOX9 intensity”: 110 % of DMSO and 142 % of DMSO.
For `CCN(CC)C(=O)Nc1ccc(OCC(O)CNC(C)(C)C)c(C(C)=O)c1` (stereo not drawn), “nuclear SOX9 intensity” read 96 % of DMSO.
For `c1cnc2cc3c(cc2n1)[C@@H]1CNC[C@H]3C1`, “nuclear SOX9 intensity” read 130 % of DMSO and 106 % of DMSO.
`CCOC(=O)[C@H](CCc1ccccc1)N[C@@H](C)C(=O)N1CCC[C@H]1C(=O)O` — result for “nuclear SOX9 intensity”: 96.9 % of DMSO.
For `CCc1nc2c(c3cc(OC)c(OC)cc13)C(=O)NC2=O`, “nuclear SOX9 intensity” read 104 % of DMSO.
`NS(=O)(=O)c1ccc(N2CCN(CC[C@@H]3OCCc4ccccc43)CC2)cc1` — result for “nuclear SOX9 intensity”: 94.2 % of DMSO.
For `Nc1nnc(Sc2ncc([N+](=O)[O-])s2)s1`, “nuclear SOX9 intensity” read 106 % of DMSO.

Study 2
Target: Activin receptor type-1-like (ACVRL1, Homo sapiens, UniProt P37023)
Chain of UniProt P37023 (whole entry, looked up): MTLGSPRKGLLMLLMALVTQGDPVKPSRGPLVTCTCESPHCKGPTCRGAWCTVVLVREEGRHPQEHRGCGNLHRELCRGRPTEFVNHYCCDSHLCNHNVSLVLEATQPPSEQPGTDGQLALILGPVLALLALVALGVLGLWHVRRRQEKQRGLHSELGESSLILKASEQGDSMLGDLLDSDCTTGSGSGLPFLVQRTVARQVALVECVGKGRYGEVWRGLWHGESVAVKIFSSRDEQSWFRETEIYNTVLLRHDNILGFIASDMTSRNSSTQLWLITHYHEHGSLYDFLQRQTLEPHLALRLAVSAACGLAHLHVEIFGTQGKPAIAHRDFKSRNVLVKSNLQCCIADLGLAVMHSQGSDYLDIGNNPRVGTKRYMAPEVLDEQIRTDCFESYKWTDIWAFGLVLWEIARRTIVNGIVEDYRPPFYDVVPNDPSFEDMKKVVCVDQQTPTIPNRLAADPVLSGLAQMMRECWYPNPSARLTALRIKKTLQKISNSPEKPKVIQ
Effect on: enzyme activity
Action: inhibitor
Concentration: 0.5 µM
Relative to: control
The remaining activity of `O=S(=O)(NCCNC/C=C/c1ccc(Br)cc1)c1cccc2cnccc12` is reported as 119%.
For `Oc1ccc(Nc2nc(-c3ccc(Cl)cc3)cs2)cc1`, the remaining activity was 103%.
For `COc1ccc(S(=O)(=O)N(CCO)c2ccccc2CN(C)CC=Cc2ccc(Cl)cc2)cc1`, the remaining activity was 98.4%.
`Cc1cc(Nc2nc(-c3ccccc3)nc3ccccc23)n[nH]1` gave a remaining activity of 115%.
For `CC(C)(C)n1nc(Cc2cccc3ccccc23)c2c(N)ncnc21`, the remaining activity was 116%.
`O=C1NC(=O)C(c2c[nH]c3ccccc23)=C1c1c[nH]c2ccccc12` has a remaining activity of 96.5%.
`Nc1ncnc2c1cnn2-c1ccccc1` gave a remaining activity of 109%.
`Fc1ccc(-c2nc3n(c2-c2ccncc2)CCS3)cc1` gave a remaining activity of 97.9%.
For `NC(=O)c1ccc(N(C(N)=O)c2c(F)cccc2F)nc1-c1ccc(F)cc1F`, the remaining activity was 99.3%.
The remaining activity of `N#CC(=C(N)Sc1ccc(N)cc1)c1ccccc1C(F)(F)F` is reported as 106%.

Study 3
SMILES: Cc1cc2c(C(N)=O)c(N)n(-c3c(C)ccc(O)c3C)c2nc1C
Relative to: DMSO
It gave 85.9% and 95% for cell growth (NCI-H69; MTT; 1.52 nM, 5 d).
For NCI-H446; Vi-Cell counting; 1.52 nM, 5 days: cell growth read 103% and 122%.
It gave 91% and 117% for cell growth (NCI-H69; MTT; 371 nM, 5 d).
It gave 101% and 104% for cell growth (NCI-H446; Vi-Cell counting; 511 pM, 5 days).
NCI-H69; MTT; 124 nM, 5 d — cell growth: 100% and 93.8%.
NCI-H69; MTT; 13.7 nM, 5 d — cell growth: 108% and 132%.

Single results of other studies
`COc1cccc(NC(=O)c2nc3scc(CN(C)Cc4ccccc4)c3c(=O)[nH]2)c1` has an inhibition of 12.5% (D(2) dopamine receptor (DRD2, Homo sapiens, UniProt P14416); ligand displacement; 10 µM).
The remaining binding of `Cn1cncc1[C@](O)(COc1ccc(C#N)cc1-c1ccc(OC(F)(F)F)cc1)c1ccc(C#N)cc1` is reported as 98% (Tyrosine-protein kinase ABL1, non-phosphorylated (ABL1, Homo sapiens, UniProt P00519, F317I); binding, competition with immobilised ligand; 1 µM).

Excerpt of the above (study 1):
`COc1ccc(-c2ccc3cc(C(=O)O)ccc3c2)cc1C12CC3CC(CC(C3)C1)C2` — result for “nuclear SOX9 intensity”: 110 % of DMSO and 142 % of DMSO.
For `c1cnc2cc3c(cc2n1)[C@@H]1CNC[C@H]3C1`, “nuclear SOX9 intensity” read 130 % of DMSO and 106 % of DMSO.
For `CCc1nc2c(c3cc(OC)c(OC)cc13)C(=O)NC2=O`, “nuclear SOX9 intensity” read 104 % of DMSO.
